Assay results from different studies.
Numbered parts are unrelated; each lists some results of a single study. Positions count from the first letter of the parent shown.

Series 1
Target: RNA binding protein fox-1 homolog 2, RRM domain, GST-SBP tag (RBFOX2, Homo sapiens, UniProt O43251-10, residues 100-194)
Technique: RNA Bind-n-Seq
Form: RNA
Matrix: in vitro
Concentration: 365 nM
Setting: natural RNA segment, single round, ends assumed
Baseline: no-protein control
Direction: higher = stronger binding
All sequences stand within: GGGAGUUCUACAGUCCGACGAUC … UGGAAUUCUCGGGUGCCAA
Target sequence (chain): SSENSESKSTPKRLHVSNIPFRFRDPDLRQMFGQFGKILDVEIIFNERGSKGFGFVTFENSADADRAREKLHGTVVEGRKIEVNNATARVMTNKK
| Oligonucleotide | RBNS enrichment (R) |
| --- | --- |
| GAAUGUGGGGCUCUGAGAUAAAGGCCCGCAGACAGGGACAAGGGAUGCCCUACCCUUAACCUAGGCUGGACACAUUUGCUGCCUUCUCCUCAAGGAAGAAGAACCCAAGC | 0.351 |
| UUGUGCUUCUUCACUUACCCAUUAGCCAGGUUCUCAUUAGGUUUUGCUUGGGCCUCCCUGGCACUGAACCUUAGGCUUUGUAUGACAGUGAAGCAGCACUGUGAGUGGUU | 0.662 |
| UAUAUAUAUAUAUAUAUAUAUAUACCUUAACUUCACUUCAAUGUAAAUAAACUUCUGCUGUUAGGGAUUCCAGUGUCUGUGUUUCUUUUUCUUGUAUCCUGAGCUUUUCA | 0.62 |
| UUAGCAAGAUGAGCUUCUGGGGUCCUUAUGUUGGUAAUGGUGCCAUGUCCAGACCCACAGCAGAGUGAAGUCUGAGUGCUCCUAACAACCCACAGCAGCCACGCUAGAAG | 0.404 |
| GUCCUUUUGAAGACAGCUAGCUAAAUUUGCCUGCCAAAAGAUGUCAAUUAUUGAAUUGAUACCUGUUUCUAGCAAAUAUAUGACAUGGCCUAGUGUCUUAAUUUUUGUCC | 4.42 |

Series 2
Target: Phosphate system positive regulatory protein PHO4, full length, GST-tagged (PHO4, Saccharomyces cerevisiae, UniProt P07270, residues 1-312)
Technique: competition protein-binding microarray
Form: double-stranded DNA, one strand shown
Matrix: in vitro
Concentration: 2 µM
Setting: whole 60-bp probe, lowest competitor level
Added: Cbf1 competitor, 0.05 µM
Direction: higher = stronger binding
All sequences stand within: … GTCTTGATTCGCTTGACGCTGCTG
Target sequence (chain): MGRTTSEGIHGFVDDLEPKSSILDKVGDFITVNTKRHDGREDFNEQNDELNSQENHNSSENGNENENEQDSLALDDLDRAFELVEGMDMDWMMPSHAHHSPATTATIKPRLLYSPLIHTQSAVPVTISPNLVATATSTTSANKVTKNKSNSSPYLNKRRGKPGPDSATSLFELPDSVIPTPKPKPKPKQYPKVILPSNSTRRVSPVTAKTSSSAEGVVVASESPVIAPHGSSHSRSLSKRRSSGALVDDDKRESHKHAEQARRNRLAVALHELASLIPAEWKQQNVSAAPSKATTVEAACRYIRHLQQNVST
| Oligonucleotide | fluorescence intensity |
| --- | --- |
| CTTCTGTAAATTTGTACTGTGGGTGGACGCGCCCCG | 3930 a.u. |
| GCGCGAAGTTTTGCTGACGTGCCAGTACCTGGGCCA | 4200 a.u. |
| AGAGATTTACGATCTAGCGTGGTTACCTAATAACAG | 5350 a.u. |
| TACAATAAATAAGTTCTATCATAATACAAGGGAATT | 3700 a.u. |
| CTGCCATTGCTGAAGCTCGTGCTTTCGAAGAAAACT | 11900 a.u. |
| AACGCCATGGCCTGTCACCTGATGCATTTATTCAAC | 5570 a.u. |
| CAGAGCTGAGCAGGGCACGTGGGTGCCCTCCAGGCT | 19200 a.u. |
| AAAGCGGTAATTTGTCACTGTACTTCACATATCTAT | 3240 a.u. |
| TGCGCAACAACTTGTCGGGTGGGTGTATGTCTAGAA | 4650 a.u. |
| CATTTGAAGGTTCGGCACGTGCTTTACCCCAAAGGT | 17800 a.u. |
| AGCGTTCAATGGCGTCATGCGGCGTTGCGAAATTTC | 4940 a.u. |
| TCAGTATAGCAGCGACGCGTGGGTATCAGGAAGAAT | 9750 a.u. |
| AAATTACTAAGTTGCCGCGTGGGTGACGCCGTATGA | 10500 a.u. |
| ATGAATGCGGACCATCACCTGCAACAGCAGCAGCAA | 4450 a.u. |
| GGGGCTGTCCCGCCCCACGTGGACCGGCTCCCCGCT | 17600 a.u. |
| CGGGGTTAAGTTTGTCACCAAACTTGCTTGCAGCAG | 3320 a.u. |
| GTCTTGTCTCATTCTCACGTGTTTTTCCCCACTTCA | 14700 a.u. |
| CTTTCCCGATCTTGTCACCGGACTTTAGCACATTTG | 3550 a.u. |

Series 3
Target: Ras GTPase-activating protein-binding protein 1, full length (G3BP1, Homo sapiens, UniProt Q13283)
Sequence of UniProt Q13283 (whole entry, looked up): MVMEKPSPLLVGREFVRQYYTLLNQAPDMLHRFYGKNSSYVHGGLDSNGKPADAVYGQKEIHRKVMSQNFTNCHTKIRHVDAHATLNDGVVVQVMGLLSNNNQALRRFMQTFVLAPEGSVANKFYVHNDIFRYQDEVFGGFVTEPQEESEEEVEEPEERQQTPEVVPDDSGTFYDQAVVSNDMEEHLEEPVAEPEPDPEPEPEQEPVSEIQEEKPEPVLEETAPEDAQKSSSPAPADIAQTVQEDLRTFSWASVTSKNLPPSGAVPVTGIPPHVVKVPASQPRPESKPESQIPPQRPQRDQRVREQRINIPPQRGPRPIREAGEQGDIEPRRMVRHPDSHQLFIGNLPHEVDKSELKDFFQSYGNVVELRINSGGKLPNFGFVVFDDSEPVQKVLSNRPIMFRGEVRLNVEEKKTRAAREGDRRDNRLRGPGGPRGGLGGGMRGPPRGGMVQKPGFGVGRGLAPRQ
Technique: RNA Bind-n-Seq
Form: RNA
Matrix: in vitro
Concentration: 200 nM
Setting: whole 134-nt RNA, ends assumed
Added: 150 mM LiCl
Baseline: input library
Direction: higher = stronger binding
Library: 7-deaza-guanosine replaces G
All sequences stand within: GGGAGUUCUACAGUCCGACGAUC … UGGAAUUCUCGGGUGUCAAGG
| Oligonucleotide | log2 enrichment |
| --- | --- |
| CCUGUGCUACACAUCGUAUGUACCGAAUCGGGGUGGGGUUUUUUUGGGGUUUUUUUGGGGAAAGUAUUAUGUUACGCCGUUCGGAUCUGC | 0.702 |
| CAAGUCCUGUGCUACACAUCGUAUGUACCGAAUCGGGUUUUUGGGUGGGUUUGGGAAAGUAUUAUGUUACGCCGUUCGGAUCUGCACUUC | -0.526 |
| GUCCUGUGCUACACAUCGUAUGUACCGAAUCAAAUUUAAAUUUUUAAAUUUUUUUAAAAAAGUAUUAUGUUACGCCGUUCGGAUCUGCAC | -2.93 |
| GCAGGAAGAAAAAACAAAUGGAAAUGCUUCGGAUAGUGGCAGGGGUGGGGGUUGCUAAGGAAAGGGUGGGAUGGGAGUGGGUAAAGAGUU | -0.031 |
| UCCUGUGCUACACAUCGUAUGUACCGAAUCAAAUUUUUUUAAACCCCCAAAUUUUUAAAAAAGUAUUAUGUUACGCCGUUCGGAUCUGCA | -0.288 |
| AAGUCCUGUGCUACACAUCGUAUGUACCGAAUCGGAGGAAAAAAAGGUUUUUUUGGAAAGUAUUAUGUUACGCCGUUCGGAUCUGCACUU | -1.29 |

Series 4
Target: CCND1, cyclin fold, Cln2 fusion (human)
Technique: yeast growth competition, sequencing
Matrix: yeast
Setting: weak parent motif
Baseline: not given
Direction: higher = stronger binding
Starting sequence: ORC1 docking peptide (human); PRARKRLELGNLG; partner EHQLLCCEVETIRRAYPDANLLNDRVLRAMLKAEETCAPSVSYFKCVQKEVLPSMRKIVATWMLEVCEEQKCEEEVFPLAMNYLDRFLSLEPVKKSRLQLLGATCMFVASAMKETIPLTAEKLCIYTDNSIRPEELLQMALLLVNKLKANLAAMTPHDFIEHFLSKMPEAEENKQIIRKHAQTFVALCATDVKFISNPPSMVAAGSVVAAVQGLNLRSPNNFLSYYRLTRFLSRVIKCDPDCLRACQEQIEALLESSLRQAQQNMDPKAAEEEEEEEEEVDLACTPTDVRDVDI
| Variant | normalised enrichment score |
| --- | --- |
| PRARKRLELGNLH [G13H] | -0.000362 |
| PRARKRLCLGNLG [E8C] | -0.35 |
| PRASKRLELGNLG [R4S] | -0.235 |
| PRARKRLEMGNLG [L9M] | 0.25 |
| FRARKRLELGNLG [P1F] | -0.57 |
| PRARKRLGLGNLG [E8G] | -0.033 |
| PRARKRLELGYLG [N11Y] | 0.599 |
| PHARKRLELGNLG [R2H] | -0.209 |
| PRARKRLELGNAG [L12A] | 0.172 |
| PRARKQLELGNLG [R6Q] | -0.315 |
| PRARKRLEKGNLG [L9K] | -0.2 |
| TRARKRLELGNLG [P1T] | 0.185 |
| PRARKRLTLGNLG [E8T] | -0.431 |
| PRARKRVELGNLG [L7V] | -0.735 |

Series 5
Target: Histone acetyltransferase KAT6A, both winged helices, GST fusion (KAT6A, Homo sapiens, UniProt Q92794, residues 1-181)
Technique: protein binding microarray
Form: double-stranded DNA, one strand shown
Matrix: in vitro
Concentration: not given
Setting: 8-mer, flanks averaged, mean of 2 arrays, mostly near background
Baseline: not given
Direction: higher = stronger binding
Construct (chain): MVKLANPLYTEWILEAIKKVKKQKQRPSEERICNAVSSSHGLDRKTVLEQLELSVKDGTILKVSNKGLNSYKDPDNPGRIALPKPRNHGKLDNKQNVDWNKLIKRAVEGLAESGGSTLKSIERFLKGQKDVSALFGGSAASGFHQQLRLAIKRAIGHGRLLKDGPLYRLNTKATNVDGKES
| Oligonucleotide | E-score |
| --- | --- |
| CGCCCCCC | 0.0322 |
| GCCCTCCA | -0.0947 |
| CGGGGAAA | 0.192 |
| CTTAGCTA | -0.249 |
| TCGACAGA | 0.136 |
| CACTAATG | -0.132 |
| ACGAACCC | 0.142 |
| ACAAAGTA | -0.209 |
| GGCGACGA | -0.0276 |
| ACAGGCCA | -0.122 |
| ACCCAAAC | -0.205 |
| AAGGTATC | -0.164 |
| ACTCATGC | -0.0647 |
| CCTGGACC | -0.169 |
| AAGACATA | -0.00421 |
| AAATCGGA | -0.0166 |
| ACAGGCGC | 0.152 |
